Experimental data collected from several papers.
Each numbered part is a random draw from the data of one study; scales do not carry over between parts.

Series 1
Target: RNA binding protein fox-1 homolog 2, RRM domain, GST-SBP tag (RBFOX2, Homo sapiens, UniProt O43251-10, residues 100-194)
Method: RNA Bind-n-Seq
Form: RNA
Sample: in vitro
Concentration: 365 nM
Notes: natural RNA segment, single round, ends assumed
Relative to: no-protein control
Reading: higher = stronger binding
Endpoint: RBNS enrichment (R)
Target sequence (chain): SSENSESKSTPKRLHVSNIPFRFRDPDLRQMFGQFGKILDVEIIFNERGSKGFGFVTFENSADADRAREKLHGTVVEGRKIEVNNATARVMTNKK
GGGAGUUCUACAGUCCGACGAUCCUCCAGAUUUGCCAUACUGAGCCCCUCUUCCUAGCAUCAGGCGAUACAUCUGAGUUCAAAUGUCUUCCCAGGCUCAGGGACCUCCAUUCCUUGAGAUUGUCUUGGCAUGGUGGAAUUCUCGGGUGCCAA: 0.532
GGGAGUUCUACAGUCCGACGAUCAGCCCUGGCACUAAUGCUGUACAGGUUUUUUUCCUGUUAGGAGAGCUGAGGCCAGCUGCCCACUGAGUCUCCUGUCCCUGAGAAGGGAGUAUGGCAGGGCUGGGAUGCGGUGGAAUUCUCGGGUGCCAA: 0.277
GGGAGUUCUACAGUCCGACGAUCGAGCCUCAGCACUGUCUGACUUUGGGAACCAGGGAUCCCACAGAAAUGUUUUGGAGAGCGGGAGGUUUCCCCCAAUCUCCUCCAAGUUCUUCUCCCUCCAACCAGAGUUGUGGAAUUCUCGGGUGCCAA: 0.344
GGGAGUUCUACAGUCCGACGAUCGGAUUACAGGAACCCACCACCACGCCCAGCUAAUUUUUGUAUUUUUAGUAGAUGGGGUUUCAUCAUGUUGGCCAGGCUGGUUUUGAACUCCUGACUUCAAAUGAUCCACCUGGAAUUCUCGGGUGCCAA: 0.492
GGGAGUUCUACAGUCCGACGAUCUGCACCUAUUCUGUAGUUGCAGCUGAUGCCUGAAUGUAUCCUAGCUGACAAAUUAUUGAUUAAUAAGAACUUGAAUUUCUGGAAGAUUCUUACUGUUAACCAAAUUUUGAUGGAAUUCUCGGGUGCCAA: 0.41
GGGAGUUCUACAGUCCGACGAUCUUUUCUUUUCUAAUGUAGCUUUCCCUGUUGAGGCUAUUGUUUCUUCUUAAUUUAUAUUAUAUUUUAAACAACAUAGUAUAUAGCACAGGAAUUUGCAGAAGCCAUUUAAGUGGAAUUCUCGGGUGCCAA: 0.593
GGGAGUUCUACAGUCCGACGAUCACUCUUUUAAGAUUCAGAGGGUACAGAACAACCUCUAUUAUUUCAGAGUACCCUUGAGAAUUGAAAUGUAUUUCGAUUAGUUGUCUUUAAUUAGCUAGCUAGAGUCAGUUUGGAAUUCUCGGGUGCCAA: 0.37
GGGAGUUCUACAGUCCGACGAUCUUGGCAAUGCCAUCAUCUCCUGCCUUCCUCCUGGGCCCUCUCUGCUCUGCGUGUCACCUGUGCUUCGGGCCCUUCCCACAGGACAUUUCUCUAAGAGAACAAUGUGCUAUUGGAAUUCUCGGGUGCCAA: 0.346
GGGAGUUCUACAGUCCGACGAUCACUGGGCCCUGCCCAGCCCCGGAACUCUGCGCGAUAUCAAUACUGGCUAUUUUCUCUUCUCGCCGUAGUGCCGUUGGUUUCACAUGAUUGCACUUUUGUGGGUCGCAAGGUGGAAUUCUCGGGUGCCAA: 0.341
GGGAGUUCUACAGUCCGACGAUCUGAGGUGAGGUGUCUUCUCUGUCUGCCCCAUUGCACUCAACUGAAUAGAAAUAUUUGGGUUUAGAGCAUCUCAAAAGUGGGUAGAAUGUCCUUUGGGAUUUUGUUGCUCCUGGAAUUCUCGGGUGCCAA: 0.611
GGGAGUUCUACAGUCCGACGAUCAUCCCAUGAUGAUGAAGGAAAAUGGAGAGAUUUUUCUUUUUAACUCUGCUGGUCAGAGAUGAAGCCACGCCUUUCCAUUUUUCAAUGCUGCAUAUUUAAUCUGCAACAAAUGGAAUUCUCGGGUGCCAA: 0.299
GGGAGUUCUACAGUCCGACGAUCAUAGAGGAAGUGGAUAAAGGAGACACCUCCCUUGCUGUGUGCUCUUUGAAAGUAAUUGACAGAAAACUACAAACACGUAGGAUGCCCUGCGCCUCAGCAGCACCCACCCCUGGAAUUCUCGGGUGCCAA: 0.445

Series 2
Target: TAR DNA-binding protein 43, full length, His tag (TARDBP, Homo sapiens, UniProt Q13148, residues 1-414)
Method: RNA Bind-n-Seq
Form: RNA
Sample: in vitro
Concentration: 20 nM
Notes: 6-mer, flanks averaged, single round
Together with: 150 mM LiCl
Relative to: input library
Reading: higher = stronger binding
Endpoint: 6-mer enrichment (R)
UACGUA: 0.903
GUACUA: 0.846
UUGGAC: 0.995
UUCGGU: 0.949
GUACGC: 0.916
UAGGUA: 0.98
GAUCGU: 1.06
UAGAUA: 0.876
UAGACC: 0.864
CGCCCA: 0.981
AGUGUA: 1.21
UGUAAU: 1.04
CGAUGG: 0.938
ACCCAA: 0.91
AAUGAU: 0.911
CAAUCU: 0.853

Series 3
Target: Fragile X messenger ribonucleoprotein 1, C-terminal low-complexity region (Fmr1, Mus musculus, UniProt P35922)
Method: RNA Bind-n-Seq
Form: RNA
Sample: in vitro
Concentration: 200 nM
Notes: whole 134-nt RNA, ends assumed
Together with: 150 mM LiCl
Relative to: input library
Reading: higher = stronger binding
Endpoint: log2 enrichment
Each molecule: 7-deaza-guanosine replaces G
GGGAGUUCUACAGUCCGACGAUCAAGUCCUGUGCUACACAUCGUAUGUACCGAAUCGGUUUUUUUGGUUUGGAAAAAGGAAAGUAUUAUGUUACGCCGUUCGGAUCUGCACUUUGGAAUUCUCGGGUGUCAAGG: -2.72
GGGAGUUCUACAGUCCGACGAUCCACAGACAACACGCACCCACACAGACACAGAGGGAAGGGGUUGGGAUGGGGACAGGGUGCAAAGCAGGGCGGGGUAGGACCCCAGCCCCUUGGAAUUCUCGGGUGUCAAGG: -0.00244
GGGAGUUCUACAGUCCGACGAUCAGUCCUGUGCUACACAUCGUAUGUACCGAAUCGGGAAAAAGGGAAAGGGAAAAAGGGAAAGUAUUAUGUUACGCCGUUCGGAUCUGCACUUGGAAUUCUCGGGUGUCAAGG: -0.762
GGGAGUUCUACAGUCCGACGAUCUCCUGUGCUACACAUCGUAUGUACCGAAUCGGGAAAAAGGGUUUUUUUGGGAAAAAGGGAAAGUAUUAUGUUACGCCGUUCGGAUCUGCAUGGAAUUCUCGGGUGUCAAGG: -1.86
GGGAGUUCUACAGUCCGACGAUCUCCUGUGCUACACAUCGUAUGUACCGAAUCGGAAAAAAGGGGAAAAAAGGAAAAAAGGGAAAGUAUUAUGUUACGCCGUUCGGAUCUGCAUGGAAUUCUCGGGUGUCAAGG: -0.276
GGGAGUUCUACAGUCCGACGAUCCACAGACAACACGCACACACACAGACACAGAGGGAAGGGGUUGGGAUGGGGACAGGGUGCACAGCAGGGCGGGGUAGGACCCCAGCCCCUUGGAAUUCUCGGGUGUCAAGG: 0.469
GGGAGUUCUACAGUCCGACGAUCAGUCCUGUGCUACACAUCGUAUGUACCGAAUCGGCCCCCGGGCCCCCGGGCCCCCGGGAAAGUAUUAUGUUACGCCGUUCGGAUCUGCACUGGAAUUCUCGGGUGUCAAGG: -2.61
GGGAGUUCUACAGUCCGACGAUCUCCUCAAGUCCUGUGCUACACAUCGUAUGUACCGAAUCGGAGGUGGUUUGGAAAGUAUUAUGUUACGCCGUUCGGAUCUGCACUUCCAGCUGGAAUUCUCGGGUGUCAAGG: -1.48
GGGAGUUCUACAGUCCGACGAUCUCCUGUGCUACACAUCGUAUGUACCGAAUCGGGGAAAAAGGGGAAAAAAAGGGGUGGGGAAAGUAUUAUGUUACGCCGUUCGGAUCUGCAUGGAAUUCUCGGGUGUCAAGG: -0.544
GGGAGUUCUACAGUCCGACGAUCGCAGGAAGUAAAAACAAAUGGAAAUGCUUCGGAUAGUGGCAGGGGUGGGGUUUGCUAAGGAAAGGGUGGGAUGGGAGUGGGUAAAGAGUUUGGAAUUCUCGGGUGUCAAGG: 1.19
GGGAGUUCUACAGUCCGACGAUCCUGUGCUACACAUCGUAUGUACCGAAUCGGGGCCCCCCCGGGGCCCCCCCGGCCCCCCCGGGAAAGUAUUAUGUUACGCCGUUCGGAUCUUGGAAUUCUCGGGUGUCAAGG: -0.824

Series 4
Target: RING finger protein unkempt homolog, zinc fingers 1-6, GST-SBP tag (UNK, Homo sapiens, UniProt Q9C0B0, residues 30-357)
UniProt Q9C0B0, sequence (30-357, looked up): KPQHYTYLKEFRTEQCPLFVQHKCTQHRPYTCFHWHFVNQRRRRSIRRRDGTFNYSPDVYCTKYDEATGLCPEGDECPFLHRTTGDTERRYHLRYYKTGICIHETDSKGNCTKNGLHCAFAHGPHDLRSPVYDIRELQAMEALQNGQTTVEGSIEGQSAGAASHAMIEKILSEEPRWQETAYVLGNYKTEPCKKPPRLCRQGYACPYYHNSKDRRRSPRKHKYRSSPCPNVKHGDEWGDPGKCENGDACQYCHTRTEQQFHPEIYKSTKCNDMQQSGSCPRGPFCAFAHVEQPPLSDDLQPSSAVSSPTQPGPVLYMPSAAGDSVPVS
Method: RNA Bind-n-Seq
Form: RNA
Sample: in vitro
Concentration: not given
Notes: RNA with constant flanks, human-mouse chimeric sites, ends assumed
Relative to: input RNA pool
Reading: higher = stronger binding
Endpoint: bound/input enrichment
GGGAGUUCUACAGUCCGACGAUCCUUAAUGAUAUUUUGAGUGAAUAAAUGUAAAACCAUGGUCUGCUUUUGGUACAACACGCAUUAAUAAAAGGUUAAGUUUUGUUUUCCACUGAAGUACUAUUUAACAUCUCAGAAAAAAACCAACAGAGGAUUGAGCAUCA: 0.128 ratio
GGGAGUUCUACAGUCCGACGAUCUUGAAAACUGAUUCAAGUAAGUUUGAGUAUCACAAUGUUAGCUUUCUAAUUCCAUAAAAGUACUUGGUACAGUUUCUUUAUAAUCUGACAUCACCCCCCGUUUAUAAGUAAAGAGCAACUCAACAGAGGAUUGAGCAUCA: 1.5 ratio
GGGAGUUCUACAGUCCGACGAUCUCAGGAACCCAGACAAACAUGAAUGUAAAUGAAGUCAUUAGCAACAGAGCAAUUGAAAUGUUAGGAGGUGAACUUGGCAGCAAGAUACCUGUGCACCCCAAUGAUCAUGUUAAUAAAAGCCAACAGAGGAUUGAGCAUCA: 0.313 ratio
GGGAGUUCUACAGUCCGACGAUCUUUCUACUGCAGCAAACGAUGCUAAGAGUGAAGGAUCCUAAGAAGUCCCUGGAUUUUUAUACGAGGGUUCUUGGAAUGACCCUCCUGCAGAAGCUUGACUUCCCUGCUAUGAAGUUCUCGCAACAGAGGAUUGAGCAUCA: 0.111 ratio
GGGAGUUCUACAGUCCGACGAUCAUAGAUGAAAUUGAUGUAGAUCAGGAAGGAAUUGCAGAAAUGAUCCUGGAUGAAAAUGCUAUUGCUCAGGUCCCACGCCCUGGCACAUCUUUGAAGCUCCCUGGCACUAACCAAACAGGACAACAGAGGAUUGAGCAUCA: 0.339 ratio
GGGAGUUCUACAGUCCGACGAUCACAGUUAUAUUGUUGAGUUUCAUUUUCAUAUAUUCUUGUAGUGUCUGCUUGCCUGUGUCUUUUAGUAAAAUAAAAUAAGCCUUUGAAUUAGCAUGCUCAUGGUAUUUAACAUUUUCUAAACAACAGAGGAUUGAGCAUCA: 12.2 ratio
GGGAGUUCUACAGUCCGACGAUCCAUGUAUCUGCAGUGCUUGAUGUGGACUACUCUCCCACUGGGAAGGAAUUUGUGUCUGCCAGCUUUGAUAAGUCUAUUAGAAUCUUUCCUGUGGACAAGAGCCGAAGCAGGGAAGUGUAUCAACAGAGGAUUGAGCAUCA: 0.605 ratio
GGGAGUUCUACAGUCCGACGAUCGUUGCCAGGUUCCGGUGCCGUUGGGCUCGGUUCUCUCCUGAGCUACGUGUCUCUACGCUCUCAAUCCGCCAUCCAACAAACAUGGAUCAGGUAAUGCUGCAGUUUGUGCCCAGCCGGCAGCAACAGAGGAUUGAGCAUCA: 0.136 ratio
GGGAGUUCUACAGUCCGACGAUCAUCAAGUACUUUGGGGACAUCAUUAGUGUGGGACAGAGACUGUUGCAAGGGGCCCGGAUCUUAGGGAUUCCAGUUAUCAUAACGGAACAAUACCCCAAAGGACUUGGCAGCACCGUUCAACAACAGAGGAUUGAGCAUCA: 0.21 ratio
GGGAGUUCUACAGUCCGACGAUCCUGGCCUGGCCCUCCCCAGGGGCCUCCUUCUCUGCAUUAACUGUCAGUGCAUCAGAUACUUUCAGCUGCAACUCCCUACUGGGUGGGGCACCCAUUUCAGGCAGAAGGUUUUGGUACCCUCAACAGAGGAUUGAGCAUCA: 0.28 ratio
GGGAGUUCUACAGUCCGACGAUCUUACUUUUAACUCCAUGGGUCAAGUUCCUGUGGGAAUCAUACAGGCAGUGUUUGGACCUUCUUCGAAACAAUUCUAGAGUAGAGCGCCUUUACCAUGAUAUCGCCCAACAAGCUUUCAAACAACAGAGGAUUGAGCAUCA: 0.263 ratio

Some of these lines once more (series 2):
GUACGC: 0.916
GUACUA: 0.846
AGUGUA: 1.21
CAAUCU: 0.853
UACGUA: 0.903
CGCCCA: 0.981
